# Experimental data gathered from unrelated publications.
# Each numbered part is a random draw from the data of one study; scales do not carry over between parts.
# Chain of UniProt P18846 (whole entry, looked up): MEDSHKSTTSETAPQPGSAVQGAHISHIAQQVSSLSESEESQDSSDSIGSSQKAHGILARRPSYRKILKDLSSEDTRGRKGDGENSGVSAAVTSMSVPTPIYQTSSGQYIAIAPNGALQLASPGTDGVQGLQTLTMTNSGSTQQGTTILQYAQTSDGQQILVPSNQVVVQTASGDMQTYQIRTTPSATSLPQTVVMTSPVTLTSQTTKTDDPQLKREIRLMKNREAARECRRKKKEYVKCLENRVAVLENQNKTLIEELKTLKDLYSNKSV
# Chain of UniProt P14921 (whole entry, looked up): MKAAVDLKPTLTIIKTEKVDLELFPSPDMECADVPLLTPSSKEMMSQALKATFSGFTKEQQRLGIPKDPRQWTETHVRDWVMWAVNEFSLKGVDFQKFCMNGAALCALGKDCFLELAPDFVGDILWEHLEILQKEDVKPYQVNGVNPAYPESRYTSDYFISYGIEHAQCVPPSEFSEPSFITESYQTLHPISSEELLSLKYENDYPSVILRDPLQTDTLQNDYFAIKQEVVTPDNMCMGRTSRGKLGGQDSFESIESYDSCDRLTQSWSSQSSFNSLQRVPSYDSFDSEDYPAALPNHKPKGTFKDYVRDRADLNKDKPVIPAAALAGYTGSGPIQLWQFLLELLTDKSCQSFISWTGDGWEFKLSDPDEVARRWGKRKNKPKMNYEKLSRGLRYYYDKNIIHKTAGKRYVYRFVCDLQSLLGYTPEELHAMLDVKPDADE

# Series 1 — method: universal PBM; form: double-stranded DNA, one strand shown; sample: in vitro; concentration: not given; reading: higher = stronger binding
# Target: Sal-like protein 4, full length isoform B (SALL4, Homo sapiens, UniProt Q9UJQ4-2, residues 1-616)
# Setting: 8-mer, flanks averaged, mean of replicates
Strand,E-score
ATTACTCA,0.291
CTGGATTA,0.131
AGTGACAT,0.157
AATGTGGT,0.114
CTTTAGGC,-0.024
AATACCGC,-0.138
CGTGTACC,-0.227
TTCCGCAA,0.00577

# Series 2 — observed: enzyme activity; mode: inhibitor; concentration: 20 µM
# Target: Replicase polyprotein 1ab, polymerase (rep, Severe acute respiratory syndrome coronavirus 2, UniProt P0DTD1)
Structure (SMILES),inhibition [%]
CCOc1ccc(S(=O)(=O)O)c2cccnc12,-3.1
CS(=O)(=O)n1cc2c(n1)CN([C@H]1CO[C@H](c3cc(F)ccc3F)[C@@H](N)C1)C2,-3.31
CN(C)c1cc(NC(=O)CNC(C)(C)C)c(O)c2c1C[C@H]1C[C@H]3[C@H](N(C)C)C(O)=C(C(N)=O)C(=O)[C@@]3(O)C(O)=C1C2=O,31.4
CN1C(=O)CC[C@H]1c1cccnc1,-2.24
O=C1[C@H](Cc2ccc(O)cc2)N2C(=O)CCN(C(=O)NCc3ccccc3)[C@H]2CN1Cc1cccc2ccccc12,4.23
Cn1c(-c2ccccc2)nnc1S(C)(=O)=O,2.02
Cc1cnc(Nc2ccc(F)cc2Cl)nc1-c1c[nH]c(C(=O)N[C@H](CO)c2cccc(Cl)c2)c1,2.16
C[C@@H](Oc1cc(-c2cnn(C3CCNCC3)c2)cnc1N)c1c(Cl)ccc(F)c1Cl,14.9
COc1ccc(-c2nc3cc(C4=NNC(=O)CC4C)ccc3[nH]2)cc1 (stereo not shown),5.16
Cc1cc(C(C)(C)C)c(O)c(C)c1CC1=NCCN1,32
NS(=O)(=O)Nc1ncnc(OCCOc2ncc(Br)cn2)c1-c1ccc(Br)cc1,-2.94
C[C@]1(COc2ccc(N3CCC(Oc4ccc(OC(F)(F)F)cc4)CC3)cc2)Cn2cc([N+](=O)[O-])nc2O1,17.4
O=C1COc2c(CCNCCN(C(=O)CCNCCc3ccc(Cl)c(Cl)c3)C3CCCCC3)ccc(O)c2N1,0.26
c1ccc2c(c1)CN1CCCC1=N2,-0.72
CO[C@H]1[C@H](O)[C@H](O[C@H]2CC[C@@]3(C=O)[C@H](CC[C@@H]4[C@@H]3CC[C@]3(C)[C@@H](C5=CC(=O)OC5)CC[C@]43O)C2)O[C@@H](C)[C@@H]1O,2.03
C[C@@H](CN1CCC(Cc2ccccc2)CC1)[C@@H](O)c1ccc(O)cc1,-2.95
CCSc1ccc2c(c1)N(CCCN1CCN(C)CC1)c1ccccc1S2,-3.64
Nc1cccc(-c2cc3c(Oc4cccc(O)c4)ncnc3[nH]2)c1,10.8
O=C(O)CC(S)C(=O)O (stereo not shown),-0.33
COc1ccc(CCc2nc3cc(-c4c(C)noc4C)ccc3n2C[C@H](C)N2CCOCC2)cc1Cl,-4.93
COC(=O)N1CC[C@@H]2[C@H]1CCC[C@@]2(O)C#Cc1cccc(C)c1,-1.82
CC(=O)OCC1=C(C(=O)O)N2C(=O)[C@@H](NC(=O)CSc3ccncc3)[C@H]2SC1,14.3
Oc1ccc2c3c1O[C@H]1c4[nH]c5ccccc5c4C[C@@]4(O)[C@@H](C2)N(CC2CC2)CC[C@]314,5.84
O=c1[nH]c(C2CCCN2)nc2c1oc1ccc(Cl)cc12 (stereo not shown),0.04
N=c1ccn2c(n1)O[C@H]1[C@H](O)[C@@H](CO)O[C@H]12,-2.54

# Series 3 — method: protein-binding microarray; form: double-stranded DNA, one strand shown; sample: in vitro; concentration: 250 nM; setting: 60-bp whole probe; together with: salmon DNA 0.4 mg/ml; baseline: random background probes; reading: higher = stronger binding; all sequences stand within: GCCTAGCAC … GTCTTGATTCGCTTGACGCTGCTG
# Target: Interferon regulatory factor 7, full length, phosphomimetic (IRF7, Homo sapiens, UniProt Q92985, residues 1-503, S101K/S471D/S472D/S475D/S476D/S477D/S483D/S484D/S487D)
# Chain of UniProt Q92985 (whole entry, unmodified, looked up): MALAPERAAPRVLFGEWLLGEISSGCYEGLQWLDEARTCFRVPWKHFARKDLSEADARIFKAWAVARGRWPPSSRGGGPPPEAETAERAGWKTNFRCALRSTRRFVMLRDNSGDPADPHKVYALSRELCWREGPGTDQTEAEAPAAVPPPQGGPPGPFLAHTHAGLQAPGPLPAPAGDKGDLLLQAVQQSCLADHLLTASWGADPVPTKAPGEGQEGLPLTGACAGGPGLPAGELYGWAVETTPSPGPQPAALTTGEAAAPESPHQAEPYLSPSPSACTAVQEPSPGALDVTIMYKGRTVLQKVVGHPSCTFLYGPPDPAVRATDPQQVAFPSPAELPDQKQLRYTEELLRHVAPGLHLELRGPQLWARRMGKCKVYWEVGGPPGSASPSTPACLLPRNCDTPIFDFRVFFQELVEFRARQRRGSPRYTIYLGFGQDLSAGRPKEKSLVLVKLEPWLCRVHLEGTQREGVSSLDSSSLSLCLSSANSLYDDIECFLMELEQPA
Strand,log fluorescence [z-score]
TGCACTCTCTACATGTGTTTGTGCTAG,-0.143
TTAGCTTTCGGACTGGGTTAGTGCTAG,0.225
TTAGGTTTCTGGTATCGGTTAGTGCTA,3.14
TCATTTATGTACTCTCTCACTGTGCTA,1.07
GACGGTCTCCTACTGCAGACGTGCTAG,-0.00324
GACGGACTGTGGACTGGGGACGTGCTA,-0.564
GTAGATTTCAGTTTCGATTAGTGCTAG,8.93
GACGGCCTGGGTTTCGGGACGTGCTAG,1.43

# Series 4 — cell line: HEK-293T/ACE2; observed: pseudovirus infection; organism: VSV pseudotyped with SARS-CoV-2 spike; concentration: 10 µM; time: 16 h; baseline: vehicle-treated
Compound,GFP-positive cells
CC(N)C12CC3CC(CC(C3)C1)C2 (stereo not shown),56.3%
CN(C)c1cc(NC(=O)CNC(C)(C)C)c(O)c2c1C[C@H]1C[C@H]3[C@H](N(C)C)C(O)=C(C(N)=O)C(=O)[C@@]3(O)C(O)=C1C2=O,87.9%
COc1ccc(OC)c(C(O)CNC(=O)CN)c1 (stereo not shown),65.2%

# Series 5 — observed: enzyme activity; mode: inhibitor; concentration: 20 µM; setting: primary screen
# Target: Replicase polyprotein 1ab, main protease (rep, Severe acute respiratory syndrome coronavirus 2, UniProt P0DTD1)
SMILES,inhibition
C=CC(=O)N1CCN(C(=O)CNc2cc(I)c(Cl)cc2O)CC1,39.6%
C=Cc1c(C)c2cc3nc(c(CC(=O)[O-])c4[n-]c(cc5nc(cc1[n-]2)C(C)=C5CC)c(C)c4C(=O)[O-])C(CCC(=O)[O-])C3C.[Cu+2] (stereo not shown),26.7%
CC[C@]1(O)C[C@@H]2C[N@@](CCc3c([nH]c4ccccc34)[C@@](C(=O)OC)(c3cc4c(cc3OC)N(C)[C@H]3[C@@](O)(C(=O)OC)[C@H](OC(C)=O)[C@]5(CC)C=CCN6CC[C@]43[C@@H]65)C2)C1,47.6%
CC(Cc1ccc(O)c(O)c1)C(C)Cc1ccc(O)c(O)c1 (stereo not shown),99.7%

# Single results of other studies — method: protein-binding microarray; form: double-stranded DNA, one strand shown; sample: in vitro; concentration: not given; reading: higher = stronger binding
# Setting: k-mer, scored over probes, only values ≥0.25
# FOXA2 forkhead domain: Hepatocyte nuclear factor 3-beta, forkhead domain (FOXA2, Homo sapiens, UniProt Q9Y261, residues 142-269)
# Chain of UniProt Q9Y261 (142-269, looked up): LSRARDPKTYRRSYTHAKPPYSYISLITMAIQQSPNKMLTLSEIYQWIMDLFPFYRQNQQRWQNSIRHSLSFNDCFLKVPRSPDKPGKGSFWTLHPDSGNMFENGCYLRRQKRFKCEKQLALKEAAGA
Strand,target,E-score
GGGCGGAC,"Protein C-ets-1 (ETS1, Homo sapiens, UniProt P14921, residues 1-441, full length assumed)",0.302
ATCAATTA,FOXA2 forkhead domain,0.299
AATTGTTA,FOXA2 forkhead domain,0.299
CCACGTA,"Cyclic AMP-dependent transcription factor ATF-1 (ATF1, Homo sapiens, UniProt P18846, residues 1-271, full length assumed)",0.378
